{"data": "Measured values gathered from unrelated publications", "note": "Numbered parts are unrelated; each lists some results of a single study."}
{"data": "Block 1", "target": "Histone acetyltransferase KAT6A, both winged helices, GST fusion (KAT6A, Homo sapiens, UniProt Q92794, residues 1-181)", "technique": "protein binding microarray", "molecule type": "double-stranded DNA, one strand shown", "sample": "in vitro", "tested at": "not given", "setting": "8-mer, flanks averaged, mean of 2 arrays, mostly near background", "reference": "not given", "direction": "higher = stronger binding", "Target sequence (chain)": "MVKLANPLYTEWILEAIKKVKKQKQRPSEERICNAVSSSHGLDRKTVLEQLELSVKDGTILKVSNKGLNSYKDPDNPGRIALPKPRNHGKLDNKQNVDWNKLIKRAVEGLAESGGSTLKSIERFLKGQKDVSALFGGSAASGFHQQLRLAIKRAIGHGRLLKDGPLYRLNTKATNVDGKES"}
{"Oligonucleotide": "AGTCGCTA", "E-score": -0.129}
{"Oligonucleotide": "CTGTTAGA", "E-score": -0.0569}
{"Oligonucleotide": "CCCTGGAG", "E-score": -0.193}
{"Oligonucleotide": "AAGTGATA", "E-score": -0.133}
{"Oligonucleotide": "AATAGTCC", "E-score": -0.0605}
{"Oligonucleotide": "CCATCACC", "E-score": -0.148}
{"Oligonucleotide": "ATGGAGTC", "E-score": -0.0892}
{"data": "Block 2", "target": "Ras GTPase-activating protein-binding protein 1, full length (G3BP1, Homo sapiens, UniProt Q13283)", "technique": "RNA Bind-n-Seq", "molecule type": "RNA", "sample": "in vitro", "tested at": "200 nM", "setting": "whole 134-nt RNA, ends assumed", "with": "150 mM KCl", "reference": "input library", "direction": "higher = stronger binding", "sequence of UniProt Q13283 (whole entry, looked up)": "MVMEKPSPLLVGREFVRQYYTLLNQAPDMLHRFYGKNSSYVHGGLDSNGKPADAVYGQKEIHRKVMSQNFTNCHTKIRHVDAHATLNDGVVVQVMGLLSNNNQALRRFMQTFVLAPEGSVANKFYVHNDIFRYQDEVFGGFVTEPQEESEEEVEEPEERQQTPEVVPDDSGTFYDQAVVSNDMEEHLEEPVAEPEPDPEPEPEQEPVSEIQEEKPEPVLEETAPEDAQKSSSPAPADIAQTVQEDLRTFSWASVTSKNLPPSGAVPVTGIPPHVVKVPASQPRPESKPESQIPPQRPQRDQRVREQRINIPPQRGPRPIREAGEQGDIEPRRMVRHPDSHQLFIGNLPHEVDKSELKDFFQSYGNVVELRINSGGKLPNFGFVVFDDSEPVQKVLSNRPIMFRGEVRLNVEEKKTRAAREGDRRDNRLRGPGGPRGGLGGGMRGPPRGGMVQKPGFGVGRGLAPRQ"}
{"Oligonucleotide": "GGGAGUUCUACAGUCCGACGAUCAGUCCUGUGCUACACAUCGUAUGUACCGAAUCGGUUUUGGGUUUUGGGGUUUUGGGGAAAGUAUUAUGUUACGCCGUUCGGAUCUGCACUUGGAAUUCUCGGGUGUCAAGG", "log2 enrichment": -0.483}
{"Oligonucleotide": "GGGAGUUCUACAGUCCGACGAUCCACAGACAACACGCACCCACACAGACACCGAGGGAAGGGGUUGGGAUGGGGACAGGGUGCACAGCAGGGCGGGGUAGGACCCCAGCCCCUUGGAAUUCUCGGGUGUCAAGG", "log2 enrichment": 1.73}
{"Oligonucleotide": "GGGAGUUCUACAGUCCGACGAUCUCCCGGGCGCUAGCCCACCUCCCACCCGCCUCUUGGCUCCUCUCCUCUAGGCCGUCGCUUUCGGGUUCUCUCAUCGCUUCGUCGUUCGCCUGGAAUUCUCGGGUGUCAAGG", "log2 enrichment": 0.738}
{"data": "Block 3", "target": "Interferon regulatory factor 3, full length, phosphomimetic (IRF3, Homo sapiens, UniProt Q14653, residues 1-427, S386D/S396D/S398D/S402D/T404D/S405D)", "technique": "protein-binding microarray", "molecule type": "double-stranded DNA, one strand shown", "sample": "in vitro", "tested at": "2540 nM top", "setting": "60-bp whole probe", "with": "salmon DNA 0.4 mg/ml", "reference": "random background probes", "direction": "higher = stronger binding", "constant ends, left off below": "GCCTAGCAC … GTCTTGATTCGCTTGACGCTGCTG", "Construct (chain)": "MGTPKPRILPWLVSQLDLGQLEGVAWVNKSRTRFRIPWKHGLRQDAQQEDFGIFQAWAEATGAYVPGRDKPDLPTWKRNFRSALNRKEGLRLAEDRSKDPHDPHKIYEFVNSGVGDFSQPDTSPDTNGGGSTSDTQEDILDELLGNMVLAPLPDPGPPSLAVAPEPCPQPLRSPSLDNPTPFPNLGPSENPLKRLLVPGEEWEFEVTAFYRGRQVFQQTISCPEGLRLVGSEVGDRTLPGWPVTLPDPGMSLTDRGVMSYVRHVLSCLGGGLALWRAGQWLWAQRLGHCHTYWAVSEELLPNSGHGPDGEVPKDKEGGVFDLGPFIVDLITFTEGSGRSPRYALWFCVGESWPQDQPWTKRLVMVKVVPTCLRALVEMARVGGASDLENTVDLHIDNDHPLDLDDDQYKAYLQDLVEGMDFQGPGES"}
{"Oligonucleotide": "GACGATTTCACTTTCGAGACGTGCTAG", "fitted relative affinity [z-score]": 4.44}
{"Oligonucleotide": "TTAGGACTGGAGTTTCGGTTAGTGCTA", "fitted relative affinity [z-score]": 3.31}
{"Oligonucleotide": "TTAGGTCTCGGTTTCGGATAGTGCTAG", "fitted relative affinity [z-score]": 4.43}
{"Oligonucleotide": "TTAGATATCAGTCTCGATTTGTGCTAG", "fitted relative affinity [z-score]": 1.76}
{"Oligonucleotide": "ATTTTTTTCTAATTGAAATGGTGCTAG", "fitted relative affinity [z-score]": 1.58}
{"Oligonucleotide": "TCATGTTTTTCATTGTTACTGTGCTAG", "fitted relative affinity [z-score]": 0.6}
{"Oligonucleotide": "TTAGGACTGGGTTTAGGTTAGTGCTAG", "fitted relative affinity [z-score]": -0.678}
{"data": "Single results of other studies"}
{"Substance": "PhoQ, residues 284 288 289 292 302 303 DDMDFR", "target": "PhoP, residues 12 14 15 18 19 SEGLL (Escherichia coli, UniProt P23836)", "test": "Sort-seq, measured: YFP reporter", "system": "E. coli", "setting": "PhoQ-PhoP variant library, with: 10 µM Mg2+", "how to read": "reference: high Mg2+ state, higher = stronger signaling", "measurement": "fold induction", "result": 0.635}
{"note": "A few entries again (block 3):"}
{"Oligonucleotide": "GACGATTTCACTTTCGAGACGTGCTAG", "fitted relative affinity [z-score]": 4.44}
